Published values from different studies.
Every numbered part comes from another study and shows a few of its results, in no order. Changes are numbered by the printed parent chain.

Set 1
Target: RING finger protein unkempt homolog, zinc fingers 1-6, GST-SBP tag (UNK, Homo sapiens, UniProt Q9C0B0, residues 30-357)
Technique: RNA Bind-n-Seq
Molecule type: RNA
Medium: in vitro
Concentration: not given
Notes: RNA with constant flanks, human and mouse sites, ends assumed
Reference: input RNA pool
Direction: higher = stronger binding
Target sequence (chain): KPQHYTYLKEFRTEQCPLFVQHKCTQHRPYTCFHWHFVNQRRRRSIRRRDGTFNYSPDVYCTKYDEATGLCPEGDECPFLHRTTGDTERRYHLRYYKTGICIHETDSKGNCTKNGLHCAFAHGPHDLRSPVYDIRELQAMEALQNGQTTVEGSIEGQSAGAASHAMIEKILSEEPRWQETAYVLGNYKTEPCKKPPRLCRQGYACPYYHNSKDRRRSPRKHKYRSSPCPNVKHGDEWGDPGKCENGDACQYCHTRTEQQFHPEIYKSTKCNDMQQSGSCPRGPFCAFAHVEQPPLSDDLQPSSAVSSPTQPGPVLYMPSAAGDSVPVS
The bound/input enrichment of `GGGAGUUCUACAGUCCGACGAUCAGCAGUCAGCCCGCGCGCCGGCCGGCUCCGUUAUGGCGACCCGCAGCCCUGGCGUCGUGAUUAGUGAUGAUGAACCAGGUUAUGACCUUGAUUUAUUUUGCAUACCUAAUCAUUAUGCUGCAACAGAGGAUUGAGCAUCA` is reported as 0.0899 ratio.
For `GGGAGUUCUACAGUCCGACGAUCUAACGCCGCCGCCCCGGAGCCGCCUUGGAGGUCCCCCUCCCCACUAAGUGCCUCUUUGCAUAGCACCAGUCCCCACCCGCACGCUCUCUGGACCACUACAGCUGGACGGGCAAUGGCGGGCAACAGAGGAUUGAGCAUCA`, the bound/input enrichment was 0.32 ratio.
For `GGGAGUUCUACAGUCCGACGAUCAAUGCCAGUGUGAUAAUGCAAGUCCCAGAGAGGAUCGUGGUUACAGGAAAUAAUGAAGACAUUUCAUUUUCAAGACCAGCAGAUCUUGACCUUAUCCAGUCCACUCCCUUUAAACCUCUGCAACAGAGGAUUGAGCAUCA`, the bound/input enrichment was 0.166 ratio.
`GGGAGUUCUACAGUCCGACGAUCACUGGGGCAGAAGACAAAGAUAAAAAGAAGAAAGAAAAAGAAAAUAAAUCUGAAAAGCAGAACAAGCCUCAGAAACAAAAUGAUGGCCAAGGGAAAGACUCUUCCAAAAGCCAAGGCAGUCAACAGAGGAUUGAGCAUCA` gave a bound/input enrichment of 0.695 ratio.
For `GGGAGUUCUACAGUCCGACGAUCAUCUAUGCUAACCUGUCUGAUGAAAAGGCUUUCGUGUUUUCAGUCGCCUUGGCAGAAAUAAAUAGAAAAAUUAUCAAUCAAAGACUUAUUCUCUGAUACUUGUUUGCAAAAUCUGCUGAACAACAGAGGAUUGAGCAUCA`, the bound/input enrichment was 1.77 ratio.
For `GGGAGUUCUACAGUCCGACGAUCAACCACUGACGUGUUUUUAUUUCCUUCUAUAUGAUUUUAAGAUGUGUUUUCUGCAUUCUGUAUAGAAACAUAUCAAACUAAAUAAAAGCAGUGUCUUUAUUACAAUGUCAUUGCCUCUGACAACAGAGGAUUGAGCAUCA`, the bound/input enrichment was 0.189 ratio.
With `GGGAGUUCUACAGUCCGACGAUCUUGUUAAAAUGCUAUUUCCUUUAUUACCUUGGAAACUGACUCAGCCUCUUGUUGCUCCUAAUUAGGGUUUAAGGCUCUUGUAAGUUGCAGAUAAAAGGAUUCAUUUUAACAAUAGAAGGACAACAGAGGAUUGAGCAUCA` the bound/input enrichment was 0.451 ratio.
The bound/input enrichment of `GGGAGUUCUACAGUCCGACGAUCUAUGGCUUAAAAUGCUUUUGGAGUUUUAUUUCUCAAAUUAAAAUCUGGUCACUUGAGAUCCAUUUUGUUCUCUGGUUUAAAAGUUAAAAGGUUUCUCUUUAACAGUCUCUUCAGCAGCAACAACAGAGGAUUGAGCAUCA` is reported as 0.262 ratio.
`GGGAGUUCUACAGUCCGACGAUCGGAAUAUUAGGACUGAGGCAACACCUAGGGACACCAAGUGAUGAAGAUAAUGAUUCCUCUUUUAGUGAUUGUCUUUCUUCUCCUUCAUCUAGUCUGCAUUUUGGAGAUUCUGAUACUGUGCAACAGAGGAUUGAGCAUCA` gave a bound/input enrichment of 0.295 ratio.
With `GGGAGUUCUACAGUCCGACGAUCGUUACAAAAGCCUCCCAUCGCUUGUGCCCUUACGGAUCGCAGCAUUGAAUGCUCUCGCUGCCUGCAAUUACCUACCUCAGUCCAGGGAGAAAAUCAUUGCUGCUCUUUUCAAAGCCCUCACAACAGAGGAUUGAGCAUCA` the bound/input enrichment was 0.113 ratio.
For `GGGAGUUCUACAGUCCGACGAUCGCCUUGUGUGCCCUUCGCUUUAUGAGGCGGAUAAUUGGACUUAAAGAUGAAUUUUAUAAUCGUUACAUCACCAAGGGAAAUCUUUUUGAGCCAGUUAUAAAUGCACUUCUGGAUAAUGGACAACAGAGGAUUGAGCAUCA`, the bound/input enrichment was 0.283 ratio.

Set 2
Target: ABI1, truncated, D143A, DHFR fusion (Arabidopsis thaliana)
Technique: DHFR PCA, deep sequencing
Medium: yeast
Notes: methotrexate growth selection, single substitutions
With: (+)-ABA 0.39 µM
Reference: wild-type fitted maximum
Direction: higher = stronger binding
Starting sequence: PYL1, truncated, DHFR fusion (Arabidopsis thaliana); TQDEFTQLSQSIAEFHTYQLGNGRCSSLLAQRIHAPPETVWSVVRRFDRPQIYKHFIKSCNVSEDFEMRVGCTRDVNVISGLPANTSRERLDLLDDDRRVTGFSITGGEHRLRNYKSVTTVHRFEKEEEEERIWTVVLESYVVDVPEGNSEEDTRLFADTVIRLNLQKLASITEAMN
`I133E` — result for “relative binding score”: 74.1%.
`F5V`: “relative binding score” 40.5%.
`F47R` — result for “relative binding score”: -12%.
For `G81N`, “relative binding score” read 17.1%.
`M176C`: “relative binding score” 8.25%.
`V118P`: “relative binding score” -6.56%.
For `E129C`, “relative binding score” read 43.2%.
Under “relative binding score”, `S59V` is recorded as 5.04%.
`R132Y`: “relative binding score” 20.2%.

Set 3
Target: Histone acetyltransferase KAT6A, both winged helices, GST fusion (KAT6A, Homo sapiens, UniProt Q92794, residues 1-181)
Technique: protein binding microarray
Molecule type: double-stranded DNA, one strand shown
Medium: in vitro
Concentration: not given
Notes: 8-mer, flanks averaged, mean of 2 arrays, mostly near background
Reference: not given
Direction: higher = stronger binding
Target sequence (chain): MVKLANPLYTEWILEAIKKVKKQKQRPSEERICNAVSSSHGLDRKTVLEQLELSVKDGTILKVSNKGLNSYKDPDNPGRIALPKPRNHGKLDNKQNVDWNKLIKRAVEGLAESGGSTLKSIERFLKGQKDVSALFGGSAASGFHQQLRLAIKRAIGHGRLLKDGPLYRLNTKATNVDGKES
The E-score of `ACTAGATG` is reported as -0.148.
`AGGTGACA` gave an E-score of -0.0754.
With `CATCTTGC` the E-score was -0.093.
`CAGAGAAG` has an E-score of -0.0835.
The E-score of `TAACTGCA` is reported as -0.159.
For `AAAATTTT`, the E-score was 0.0972.
For `TGGTCCAA`, the E-score was 0.00077.
`GCAAAGCC` has an E-score of -0.0301.
`AAACTTCA` gave an E-score of -0.0414.
`AAGAAGGA` gave an E-score of -0.114.
`CGTGTATA` gave an E-score of 0.125.
The E-score of `CGGGTCCC` is reported as 0.187.
`ACTTCCAA` gave an E-score of -0.29.
`CCATAGTC` has an E-score of -0.147.
For `AGATCGAG`, the E-score was -0.154.
For `CAGCGCAC`, the E-score was 0.129.
The E-score of `CCAGTAGA` is reported as -0.285.
For `GTGCTGAA`, the E-score was -0.142.
`CACCAGAC` has an E-score of -0.109.
`TAACAACA` gave an E-score of -0.113.
`CTCCGCGC` has an E-score of 0.333.
For `AGGTTGTG`, the E-score was -0.129.
For `CGCCATCA`, the E-score was 0.0549.
`AATGTCGT` has an E-score of -0.131.
`AAATATTT` has an E-score of -0.139.

Set 4
Target: CCNB1, cyclin fold, Cln2 fusion (human)
Technique: yeast growth competition, sequencing
Medium: yeast
Notes: strong parent motif
Reference: not given
Direction: higher = stronger binding
Starting sequence: E2F1 docking peptide (human); PPVKRRLDFETDH; partner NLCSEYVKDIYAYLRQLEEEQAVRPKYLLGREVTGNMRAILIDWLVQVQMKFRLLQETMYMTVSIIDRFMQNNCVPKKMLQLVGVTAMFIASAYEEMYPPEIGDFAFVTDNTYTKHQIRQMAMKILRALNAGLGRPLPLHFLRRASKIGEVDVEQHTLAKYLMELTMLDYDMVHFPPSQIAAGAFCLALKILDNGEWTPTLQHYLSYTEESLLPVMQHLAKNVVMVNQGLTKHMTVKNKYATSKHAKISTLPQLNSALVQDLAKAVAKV
For `PPVKRRLDFMTDH [E10M]`, “normalised enrichment score” read 4.
`PPVRRRLDFETDH [K4R]`: “normalised enrichment score” 5.41.
Under “normalised enrichment score”, `PPVKRRLDFETHH [D12H]` is recorded as 5.06.
`PPVKRRLDFETWH [D12W]`: “normalised enrichment score” 4.77.
For `PPVIRRLDFETDH [K4I]`, “normalised enrichment score” read 5.4.
`PPVKHRLDFETDH [R5H]` — result for “normalised enrichment score”: 0.947.
`PPVKRRLPFETDH [D8P]` — result for “normalised enrichment score”: 1.28.
`PPTKRRLDFETDH [V3T]`: “normalised enrichment score” 3.64.
Under “normalised enrichment score”, `PPVKRRKDFETDH [L7K]` is recorded as 0.444.
For `PPCKRRLDFETDH [V3C]`, “normalised enrichment score” read 3.56.
For `PPIKRRLDFETDH [V3I]`, “normalised enrichment score” read 4.08.
`PPVKRRLDFPTDH [E10P]`: “normalised enrichment score” 4.2.
`PPVKRALDFETDH [R6A]`: “normalised enrichment score” 3.64.
Under “normalised enrichment score”, `PPVKRRLDFEWDH [T11W]` is recorded as 4.89.
`PPVKRKLDFETDH [R6K]`: “normalised enrichment score” 5.07.
For `PPVMRRLDFETDH [K4M]`, “normalised enrichment score” read 4.99.
`PPVGRRLDFETDH [K4G]`: “normalised enrichment score” 3.18.
For `PPVKRRLDPETDH [F9P]`, “normalised enrichment score” read 0.118.
`PPVHRRLDFETDH [K4H]` — result for “normalised enrichment score”: 4.6.

Set 5
Target: CREBZF, bZIP domain (human)
Technique: DHFR protein complementation
Medium: yeast
Notes: single substitutions, most at no-binding floor
Reference: wild-type JUN-FOS pair
Direction: higher = stronger binding
Starting sequence: JUN, bZIP domain (human); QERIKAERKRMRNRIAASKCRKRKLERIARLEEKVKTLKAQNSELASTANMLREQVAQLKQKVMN; partner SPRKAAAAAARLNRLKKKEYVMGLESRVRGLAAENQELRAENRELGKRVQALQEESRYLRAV
`E32Y` gave a binding fitness of -1.35 natural log.
The binding fitness of `K34T` is reported as -1.51 natural log.
The binding fitness of `L52D` is reported as -1.53 natural log.
The binding fitness of `T48W` is reported as -1.35 natural log.
For `R30Y`, the binding fitness was -1.4 natural log.
`I28A` has a binding fitness of -1.45 natural log.
For `V35T`, the binding fitness was -1.54 natural log.
`L45R` has a binding fitness of -1.49 natural log.
`L52S` has a binding fitness of -1.51 natural log.
The binding fitness of `Q41S` is reported as -1.56 natural log.
For `A49F`, the binding fitness was -1.46 natural log.
`S43R` has a binding fitness of -1.47 natural log.

For quick reference, copied from above (set 3):
The E-score of `ACTAGATG` is reported as -0.148.
`AATGTCGT` has an E-score of -0.131.
`CCATAGTC` has an E-score of -0.147.
For `TGGTCCAA`, the E-score was 0.00077.
`CACCAGAC` has an E-score of -0.109.
For `GTGCTGAA`, the E-score was -0.142.
`AAATATTT` has an E-score of -0.139.
`TAACAACA` gave an E-score of -0.113.
